Assay results pooled from the literature.
Protocols differ between the studies behind these lines. Numbers after ± are the reported error.
inhA: Enoyl-[acyl-carrier-protein] reductase [NADH] (inhA, Mycobacterium tuberculosis, UniProt P9WGR1)
ZNRF3: E3 ubiquitin-protein ligase ZNRF3 (ZNRF3, Homo sapiens, UniProt Q9ULT6)
Sequence of UniProt Q9ULT6 (whole entry, looked up): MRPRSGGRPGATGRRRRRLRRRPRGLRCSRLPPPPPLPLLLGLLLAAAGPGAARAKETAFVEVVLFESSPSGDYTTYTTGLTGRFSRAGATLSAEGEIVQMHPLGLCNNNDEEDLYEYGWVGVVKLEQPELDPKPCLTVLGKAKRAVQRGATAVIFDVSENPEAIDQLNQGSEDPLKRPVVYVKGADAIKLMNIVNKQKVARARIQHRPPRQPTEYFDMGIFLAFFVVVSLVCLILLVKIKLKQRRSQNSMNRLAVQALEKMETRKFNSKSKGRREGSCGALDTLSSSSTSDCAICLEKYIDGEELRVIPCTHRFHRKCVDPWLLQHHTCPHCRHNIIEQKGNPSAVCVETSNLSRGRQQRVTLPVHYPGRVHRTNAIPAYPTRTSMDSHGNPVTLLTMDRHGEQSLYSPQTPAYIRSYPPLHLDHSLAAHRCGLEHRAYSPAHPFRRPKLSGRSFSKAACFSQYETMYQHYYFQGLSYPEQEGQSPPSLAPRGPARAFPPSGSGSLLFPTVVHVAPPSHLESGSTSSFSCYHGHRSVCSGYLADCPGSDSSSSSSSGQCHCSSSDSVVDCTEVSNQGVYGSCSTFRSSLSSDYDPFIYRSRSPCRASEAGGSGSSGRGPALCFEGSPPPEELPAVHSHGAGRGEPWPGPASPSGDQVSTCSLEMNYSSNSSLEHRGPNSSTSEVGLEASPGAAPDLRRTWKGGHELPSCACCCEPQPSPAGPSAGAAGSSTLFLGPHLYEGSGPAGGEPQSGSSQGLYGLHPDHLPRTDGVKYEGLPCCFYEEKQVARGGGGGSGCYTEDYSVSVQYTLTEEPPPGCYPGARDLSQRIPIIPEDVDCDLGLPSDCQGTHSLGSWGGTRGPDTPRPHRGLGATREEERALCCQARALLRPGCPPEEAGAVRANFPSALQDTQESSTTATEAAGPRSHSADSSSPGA
SRC: Proto-oncogene tyrosine-protein kinase Src (SRC, Homo sapiens, UniProt P12931)
Sequence of UniProt P0A725 (whole entry, looked up): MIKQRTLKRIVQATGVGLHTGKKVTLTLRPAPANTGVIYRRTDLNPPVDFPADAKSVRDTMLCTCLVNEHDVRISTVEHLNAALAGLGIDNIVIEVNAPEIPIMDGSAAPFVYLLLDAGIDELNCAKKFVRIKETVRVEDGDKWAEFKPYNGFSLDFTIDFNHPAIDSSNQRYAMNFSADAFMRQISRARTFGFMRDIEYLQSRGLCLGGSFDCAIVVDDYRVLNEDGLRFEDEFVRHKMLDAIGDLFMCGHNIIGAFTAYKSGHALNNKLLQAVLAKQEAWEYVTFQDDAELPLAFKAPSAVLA
Sequence of UniProt Q13546 (whole entry, looked up): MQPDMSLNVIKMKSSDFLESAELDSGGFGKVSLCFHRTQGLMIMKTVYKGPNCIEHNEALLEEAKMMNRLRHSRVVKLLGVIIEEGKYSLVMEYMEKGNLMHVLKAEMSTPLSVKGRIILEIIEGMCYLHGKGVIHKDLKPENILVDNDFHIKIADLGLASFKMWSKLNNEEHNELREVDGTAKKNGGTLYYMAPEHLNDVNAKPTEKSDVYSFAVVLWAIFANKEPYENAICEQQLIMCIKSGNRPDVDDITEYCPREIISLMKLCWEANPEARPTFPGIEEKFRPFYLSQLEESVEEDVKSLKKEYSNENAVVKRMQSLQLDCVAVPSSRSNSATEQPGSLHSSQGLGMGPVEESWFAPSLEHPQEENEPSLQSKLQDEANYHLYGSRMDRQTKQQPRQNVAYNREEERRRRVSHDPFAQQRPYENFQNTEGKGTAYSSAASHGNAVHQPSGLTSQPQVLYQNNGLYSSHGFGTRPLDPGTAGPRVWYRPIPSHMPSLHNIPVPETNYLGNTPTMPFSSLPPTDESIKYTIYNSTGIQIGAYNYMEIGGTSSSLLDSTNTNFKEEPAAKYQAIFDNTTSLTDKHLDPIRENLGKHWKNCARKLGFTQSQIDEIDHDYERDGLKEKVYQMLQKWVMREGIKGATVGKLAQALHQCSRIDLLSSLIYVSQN
Sequence of UniProt P46098 (whole entry, looked up): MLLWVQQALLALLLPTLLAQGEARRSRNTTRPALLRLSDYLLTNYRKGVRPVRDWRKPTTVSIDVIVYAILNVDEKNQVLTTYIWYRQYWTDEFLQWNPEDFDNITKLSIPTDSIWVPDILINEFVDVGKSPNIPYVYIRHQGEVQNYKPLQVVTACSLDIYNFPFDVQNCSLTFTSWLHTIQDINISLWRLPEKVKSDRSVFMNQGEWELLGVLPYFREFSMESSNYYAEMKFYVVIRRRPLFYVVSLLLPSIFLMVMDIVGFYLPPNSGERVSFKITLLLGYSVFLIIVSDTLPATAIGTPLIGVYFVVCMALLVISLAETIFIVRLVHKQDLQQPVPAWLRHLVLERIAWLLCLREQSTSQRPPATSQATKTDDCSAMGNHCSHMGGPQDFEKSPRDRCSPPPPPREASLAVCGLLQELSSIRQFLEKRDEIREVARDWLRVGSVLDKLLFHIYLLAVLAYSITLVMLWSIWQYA
Sequence of UniProt Q96RJ0 (whole entry, looked up): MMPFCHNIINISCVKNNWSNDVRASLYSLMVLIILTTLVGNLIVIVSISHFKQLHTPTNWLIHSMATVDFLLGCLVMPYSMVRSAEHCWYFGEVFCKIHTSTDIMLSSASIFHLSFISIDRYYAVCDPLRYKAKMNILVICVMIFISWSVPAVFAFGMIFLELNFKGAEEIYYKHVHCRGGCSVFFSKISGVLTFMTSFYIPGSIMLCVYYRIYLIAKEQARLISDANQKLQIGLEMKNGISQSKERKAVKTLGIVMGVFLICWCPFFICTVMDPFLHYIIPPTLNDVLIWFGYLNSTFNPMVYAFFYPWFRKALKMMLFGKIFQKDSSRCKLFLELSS
Sequence of UniProt P34972 (whole entry, looked up): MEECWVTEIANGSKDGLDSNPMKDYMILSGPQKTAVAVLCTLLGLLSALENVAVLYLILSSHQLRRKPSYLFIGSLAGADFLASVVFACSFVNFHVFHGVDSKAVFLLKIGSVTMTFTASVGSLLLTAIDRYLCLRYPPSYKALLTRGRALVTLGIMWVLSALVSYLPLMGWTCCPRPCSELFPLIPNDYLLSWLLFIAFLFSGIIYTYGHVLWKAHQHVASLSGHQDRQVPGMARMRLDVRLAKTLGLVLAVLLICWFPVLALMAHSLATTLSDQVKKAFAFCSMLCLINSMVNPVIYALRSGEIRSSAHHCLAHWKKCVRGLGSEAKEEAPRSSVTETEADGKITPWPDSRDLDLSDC
Sequence of UniProt Q00987 (whole entry, looked up): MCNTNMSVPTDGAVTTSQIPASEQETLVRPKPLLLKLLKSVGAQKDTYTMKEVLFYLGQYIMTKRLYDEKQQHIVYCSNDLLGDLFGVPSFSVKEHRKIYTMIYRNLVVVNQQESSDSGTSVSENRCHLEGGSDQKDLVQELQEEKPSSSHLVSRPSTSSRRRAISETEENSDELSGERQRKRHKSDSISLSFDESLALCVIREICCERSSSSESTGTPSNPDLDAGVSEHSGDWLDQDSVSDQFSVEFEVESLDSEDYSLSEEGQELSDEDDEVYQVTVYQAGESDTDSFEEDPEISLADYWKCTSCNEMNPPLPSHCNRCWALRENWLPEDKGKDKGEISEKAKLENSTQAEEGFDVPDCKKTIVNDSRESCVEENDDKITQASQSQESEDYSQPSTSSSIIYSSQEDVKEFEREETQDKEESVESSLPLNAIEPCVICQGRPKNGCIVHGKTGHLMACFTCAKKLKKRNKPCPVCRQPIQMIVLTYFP
Sequence of UniProt Q0P543 (whole entry, looked up): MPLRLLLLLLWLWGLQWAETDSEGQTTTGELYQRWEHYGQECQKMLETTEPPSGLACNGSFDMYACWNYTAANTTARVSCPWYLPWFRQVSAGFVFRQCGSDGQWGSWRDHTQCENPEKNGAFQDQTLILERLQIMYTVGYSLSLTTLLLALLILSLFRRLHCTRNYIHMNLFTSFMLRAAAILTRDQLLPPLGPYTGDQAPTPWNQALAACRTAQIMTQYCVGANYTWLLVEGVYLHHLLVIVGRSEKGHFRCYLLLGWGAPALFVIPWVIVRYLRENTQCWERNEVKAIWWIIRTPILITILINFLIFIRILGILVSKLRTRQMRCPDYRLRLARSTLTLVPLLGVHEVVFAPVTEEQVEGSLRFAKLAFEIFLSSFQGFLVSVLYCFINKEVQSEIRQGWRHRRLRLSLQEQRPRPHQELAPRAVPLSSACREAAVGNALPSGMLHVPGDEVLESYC
Sequence of UniProt G5EFZ1 (whole entry, looked up): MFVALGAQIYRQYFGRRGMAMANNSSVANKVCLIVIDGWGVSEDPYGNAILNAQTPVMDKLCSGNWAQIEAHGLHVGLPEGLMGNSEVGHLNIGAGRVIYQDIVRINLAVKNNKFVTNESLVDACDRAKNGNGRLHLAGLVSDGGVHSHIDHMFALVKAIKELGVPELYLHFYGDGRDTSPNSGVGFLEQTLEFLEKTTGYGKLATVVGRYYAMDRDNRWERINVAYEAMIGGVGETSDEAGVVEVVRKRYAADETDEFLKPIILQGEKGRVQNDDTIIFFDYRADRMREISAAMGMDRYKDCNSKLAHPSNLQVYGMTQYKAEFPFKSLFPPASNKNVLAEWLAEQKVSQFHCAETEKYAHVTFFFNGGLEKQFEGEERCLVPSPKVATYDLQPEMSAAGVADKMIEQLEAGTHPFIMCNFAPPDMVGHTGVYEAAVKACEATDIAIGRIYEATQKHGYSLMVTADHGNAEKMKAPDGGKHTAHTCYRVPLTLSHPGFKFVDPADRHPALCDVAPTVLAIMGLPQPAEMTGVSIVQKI
Sequence of UniProt P07445 (whole entry, unmodified, looked up): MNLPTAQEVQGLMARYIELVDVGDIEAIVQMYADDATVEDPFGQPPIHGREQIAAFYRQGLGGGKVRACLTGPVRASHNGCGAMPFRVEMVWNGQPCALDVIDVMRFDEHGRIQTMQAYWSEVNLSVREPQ
Sequence of UniProt P07148 (whole entry, looked up): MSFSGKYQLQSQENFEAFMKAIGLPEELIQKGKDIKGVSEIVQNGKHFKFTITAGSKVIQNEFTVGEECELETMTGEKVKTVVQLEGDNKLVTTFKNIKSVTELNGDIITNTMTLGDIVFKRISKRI

SMILES | tested on | assay | test system | setting | endpoint | result
COc1ccc(C=CC(=O)c2ccccc2)cc1OC | inhA | binding, fluorescence | – | pH 8 | Kd | 10300 nM
CC[C@H](C)[C@@H]1NC(=O)[C@@H]2CCCN2C(=O)[C@H](CCCNC(=N)N)NC(=O)[C@H](CCC(=O)O)NC(=O)[C@@H]2CSSC[C@@H]3NC(=O)[C@H](CCCCN)NC(=O)[C@H](CCCCN)NC(=O)[C@H](CC(N)=O)NC(=O)[C@H](CC(C)C)NC(=O)[C@H](CCCNC(=N)N)NC(=O)[C@H](CC(N)=O)NC(=O)[C@@H](NC(=O)CNC(=O)[C@H](CO)NC(=O)CNC(=O)[C@H](CO)NC(=O)CNC(=O)[C@H](CO)NC(=O)CNC(=O)[C@H](CC(C)C)NC(=O)[C@H](CCCCN)NC(=O)[C@H](CO)NC(=O)[C@H](CCCNC(=N)N)NC(=O)CN)CSSC[C@H](NC(=O)[C@H](CSSC[C@@H](C(=O)N[C@@H](CCCNC(=N)N)C(=O)N4CCC[C@H]4C(=O)N[C@@H](CC(=O)O)C(=O)N[C@H](C(=O)NCC(=O)N4CCC[C@H]4C(=O)O)C(C)C)NC(=O)[C@H](Cc4ccc(O)cc4)NC(=O)[C@H](CCSC)NC(=O)[C@H](Cc4ccccc4)NC(=O)[C@H](CCCCN)NC(=O)[C@H](Cc4c[nH]c5ccccc45)NC(=O)CNC1=O)NC(=O)[C@H](CC(=O)O)NC(=O)[C@H](C)NC(=O)[C@H](CC(=O)O)NC(=O)[C@H](CO)NC(=O)[C@H](CC(N)=O)NC3=O)C(=O)N[C@@H](C)C(=O)N[C@@H](CC(N)=O)C(=O)N[C@@H](CCCCN)C(=O)N[C@@H](CCC(=O)O)C(=O)N[C@@H](CCCCN)C(=O)N2 | ZNRF3 | binding | – | pH 7.4 | Kd | 79 ± 2.8 nM
CCCNC(=O)[C@H](CC(C)C)NC(=O)[C@H](Cc1c[nH]cn1)NC(=O)CNC(=O)[C@@H](NC(=O)[C@H](C)NC(=O)[C@H](Cc1c[nH]c2ccccc12)NC(=O)[C@H](CCC(N)=O)NC(=O)[C@@H](Cc1ccccc1)NC(=O)CCCCCNC(=O)CN1CCN(CC(=O)O)CCN(CC(=O)O)CCN(CC(=O)O)CC1)C(C)C [indium-111 labelled] | Gastrin-releasing peptide receptor (Mus musculus, UniProt P21729) | biodistribution | CF-1 mice, kidneys | intravenous, 1 h, unblocked | tissue uptake | 1.54 ± 0.16 %ID/g
Cc1cc(O)cc(-c2nc(Nc3cc(C(F)(F)F)cc(C(F)(F)F)c3)ncc2-c2ccnc(-c3ccccc3)c2)c1 | SRC | biochemical | – | – | EC50 | > 100000 nM
NCCc1ccc(Oc2ccc(O)cc2)c(I)c1 | TAAR1 (Homo sapiens, UniProt Q96RJ0) | cAMP, agonist, luciferase | – | – | EC50 | 741 nM
CC12CCC3C(CC=C4CC(O)CCC43C)C1CCC2=O (centres unmarked) | Steroid Delta-isomerase (Pseudomonas putida, UniProt P07445, D40N/Y119F/Y32F/Y57F) | – | – | – | Kd | 3200 ± 300 nM
COc1ccc(C[C@H]2C(=O)N(C)[C@@H](Cc3ccc(O)cc3)C(=O)N(C)[C@@H](Cc3ccccc3)C(=O)N[C@@H](CC(N)=O)C(=O)NCC(=O)N(C)[C@@H](Cc3ccc(O)cc3)C(=O)N[C@@H](CC(N)=O)C(=O)N[C@@H](Cc3c[nH]cn3)C(=O)N[C@@H](Cc3ccc(O)cc3)C(=O)N[C@@H](Cc3c[nH]c4ccccc34)C(=O)N[C@H](C(N)=O)CSCC(=O)N[C@H](Cc3ccc(O)cc3)C(=O)N[C@@H](CC(=O)O)C(=O)N[C@@H](CO)C(=O)N[C@@H](Cc3ccc(O)cc3)C(=O)N[C@@H](C)C(=O)N2C)cc1 | ipgm-1 (Caenorhabditis elegans, UniProt G5EFZ1) | enzyme activity | – | – | AC50 | 15.5 nM
CCCCCn1cc(C(=O)c2ccc3ccccc3c2)c2ccccc21 | CNR1 (Homo sapiens, UniProt P21554, L193I) | G protein activation, agonist, BRET | – | – | EC50 | 112 nM
CC(Cc1ccc(O)cc1)NCC(O)c1ccc(O)c(O)c1 (centres unmarked) | Beta-2 adrenergic receptor, V2R C-tail chimera (ADRB2, Homo sapiens, UniProt P07550) | agonist | – | concentration not given | EC50 | 10 nM
Cc1cc(O)cc(-c2nc(Nc3cc(C(F)(F)F)cc(C(F)(F)F)c3)ncc2-c2ccnc(-c3ccc(C#N)cc3)c2)c1 | SRC | biochemical | – | – | EC50 | > 100000 nM
CC1=C[C@H]2c3c(O)cc(CCc4ccccc4)cc3OC(C)(C)[C@@H]2CC1 | CNR2 (Homo sapiens, UniProt P34972) | GTPγS binding, agonist, radiometric | – | cell membranes | EC50 | 478 nM
CC(=O)N(Cc1ccccc1)[C@@H](C)C(=O)N(C)[C@@H](C)C(=O)N(Cc1c[nH]c2cc(Cl)ccc12)[C@@H](C)C(=O)N(C)[C@@H](C)C(=O)N(CCC(C)(C)C)[C@@H](C)C(=O)N1CCNCC1 | E3 ubiquitin-protein ligase Mdm2, N-terminal domain 17-125 (MDM2, Homo sapiens, UniProt Q00987) | binding, fluorescence anisotropy | PBS with Tween | 25 °C, fluorescein-labelled peptoid, 10 nM | Kd | 8.6 nM
CC1=CC(C)=[N+]2C1=Cc1ccc(CCC(=O)NCCCn3cc(-c4ccc5c(c4)CCN5C(=O)Cc4cccc(OC(F)(F)F)c4)c4c(N)ncnc43)n1[B-]2(F)F | RIPK1 (Homo sapiens, UniProt Q13546) | binding, TR-FRET | – | – | Kd | 608 nM
CC[C@H](C)[C@H](NC(=O)CNC(=O)[C@@H](NC(=O)[C@@H](N)[C@@H](C)O)[C@@H](C)O)C(=O)NCC(=O)N[C@@H](Cc1ccc(O)cc1)C(=O)N[C@@H](CCC(N)=O)C(=O)N1CCC[C@H]1C(=O)N[C@@H](Cc1ccc(O)cc1)C(=O)N[C@@H](CCCNC(=N)N)C(=O)N[C@H](C(=O)N[C@H](C(N)=O)C(C)C)C(C)C | ACE2 (Homo sapiens, UniProt Q9BYF1) | – | – | – | Kd | 672000 ± 168000 nM
C#CCOc1ccccc1-c1nc2ccc(Cl)cc2c(=O)o1 | Serine protease Rv3671c (Mycobacterium tuberculosis, UniProt P9WHR9) | – | – | – | Ki | 262 nM
CC[C@H](C)[C@H](NC(=O)[C@H](CO)NC(=O)[C@H](Cc1ccc(O)cc1)NC(=O)[C@H](CC(=O)O)NC(=O)[C@H](CO)NC(=O)[C@@H](NC(=O)[C@H](Cc1ccccc1)NC(=O)[C@@H](NC(=O)CNC(=O)[C@@H]1CCCN1C(=O)[C@H](C)NC(=O)[C@@H](N)Cc1ccc(O)cc1)[C@@H](C)O)[C@@H](C)CC)C(=O)N[C@@H](C)C(=O)N[C@@H](CCSC)C(=O)N[C@@H](CC(=O)O)C(=O)N[C@@H](CCCCN)C(=O)N[C@H](C(=O)N[C@@H](CCCNC(=N)N)C(=O)N[C@@H](CCC(N)=O)C(=O)N[C@@H](CCC(N)=O)C(=O)N[C@@H](CC(=O)O)C(=O)N[C@@H](Cc1ccccc1)C(=O)N[C@H](C(=O)N[C@@H](CC(N)=O)C(=O)N[C@@H](Cc1c[nH]c2ccccc12)C(=O)N[C@@H](CC(C)C)C(=O)N[C@@H](CC(C)C)C(=O)N[C@@H](C)C(=O)N[C@@H](CCC(N)=O)C(=O)N[C@@H](CCCCN)C(=O)NCC(=O)N[C@@H](CCCCN)C(=O)N[C@@H](CCCCN)C(=O)N[C@@H](CC(N)=O)C(=O)N[C@@H](CC(=O)O)C(=O)N[C@@H](Cc1c[nH]c2ccccc12)C(=O)N[C@@H](CCCCN)C(=O)N[C@@H](Cc1c[nH]cn1)C(=O)N[C@@H](CC(N)=O)C(=O)N[C@@H](CC(C)C)C(=O)N[C@H](C(=O)N[C@@H](CCC(N)=O)C(=O)O)[C@@H](C)O)C(C)C)[C@@H](C)CC | Gastric inhibitory polypeptide receptor (Mus musculus, UniProt Q0P543) | agonist | – | – | EC50 | 38 nM
CC(=O)Oc1cccc2[nH]cc(CC[N+](C)(C)C)c12 | HTR3A (Homo sapiens, UniProt P46098) | ligand displacement, radioligand | – | cell membranes | Ki | > 10000 nM
CN[C@](C)(C[18F])C(=O)O | SK-OV-3 tumour model | – | host not given, muscle | 2 h, tumour-bearing | tracer uptake | 1.2 %ID/g
CC1(C)OC2OC(C(CCO)NCCCNC(CCO)C3OC4OC(C)(C)OC4C3OCc3ccccc3)C(OCc3ccccc3)C2O1 (centres unmarked) | DNA ligase A (Mycobacterium tuberculosis, UniProt P9WNV1) | enzyme activity, inhibitor | – | – | Ki | 72800 nM
CC1=CC(C)=[N+]2C1=Cc1ccc(CCC(=O)NCCOCCOCCOCCOCC(=O)N[C@H](C(=O)N3C[C@H](O)C[C@H]3C(=O)NCc3ccc(-c4scnc4C)cc3)C(C)(C)C)n1[B-]2(F)F | von Hippel-Lindau disease tumor suppressor, with elongin B/C (VHL, Homo sapiens, UniProt P40337) | binding, TR-FRET | – | 240 min, with: BODIPY FL VH032 | Kd | 2.98 nM
CCC[C@H](NC(=O)[C@H](CC(C)C)NC(=O)OCc1ccccc1)C(=O)C(=O)NCc1ccccn1 | Replicase polyprotein 1ab, main protease (Human coronavirus OC43, UniProt P0C6X6) | enzyme activity, inhibitor | – | – | Ki | 430 nM
C[C@@](O)(C(F)F)[C@H](NC(=O)c1ccc(C#CC#CC2CC2)cc1)C(=O)NO | UDP-3-O-acyl-N-acetylglucosamine deacetylase (Escherichia coli K-12, UniProt P0A725) | target binding in plasma, rapid equilibrium dialysis | mouse plasma | 10 µM, with: LpxC 9 µM in buffer | buffer-to-plasma concentration ratio | 1.4 ± 0.1
CCCCCc1cc(O)c2c(c1)OC(C)(C)[C@@H]1CCC(CO)=C[C@@H]21 | FABP1 (Homo sapiens, UniProt P07148) | ligand displacement, fluorescence | – | – | EC50 | 1500 nM
Nc1ncnc2c1ncn2[C@@H]1O[C@H](COP(=O)(O)OP(=O)(O)OP(=O)(O)O)[C@@H](O)[C@H]1O | ATP phosphoribosyltransferase (Mycobacterium tuberculosis, UniProt P9WMN1) | pre-steady-state stopped-flow | – | pH 8.5, with: PRPP 1.5 mM | Kd | 47200 ± 10300 nM
O=C(CCCN1C(=O)[C@H](c2ccccc2)Oc2cccnc21)NCCCN1CCc2ccccc2C1 | Outer membrane protein OmpV (ompV, Vibrio cholerae serotype O1, UniProt P06111) | – | – | – | Kd | 325 nM
CCOC(=O)C1C(OC(c2ccc(Cl)cc2)c2ccc(Cl)cc2)CC2CCC1N2C (single isomer, unassigned) | Sigma-2 receptor/TMEM97 (Cavia porcellus, UniProt H0V073) | radioligand binding | – | racemate, with: [3H]DTG, (+)-pentazocine mask | Ki | 333 nM
CCCCCCc1ccc(Oc2ccccc2Br)c(O)c1 | inhA | inhibitor, progress curve analysis | – | 20 °C, final EI* complex | Ki | 34 ± 1 nM
CC[C@H](C)[C@@H]1NC(=O)[C@@H]2CCCN2C(=O)[C@H](CCCNC(=N)N)NC(=O)[C@H](CCC(=O)O)NC(=O)[C@@H]2CSSC[C@@H]3NC(=O)[C@H](CCCCN)NC(=O)[C@H](CCCCN)NC(=O)[C@H](CC(N)=O)NC(=O)[C@H](CC(C)C)NC(=O)[C@H](CCCNC(=N)N)NC(=O)[C@H](CC(N)=O)NC(=O)[C@@H](NC(=O)CN)CSSC[C@H](NC(=O)[C@H](CSSC[C@@H](C(=O)N[C@@H](CCCNC(=N)N)C(=O)N4CCC[C@H]4C(=O)N[C@@H](CC(=O)O)C(=O)N[C@H](C(=O)NCC(=O)N4CCC[C@H]4C(=O)O)C(C)C)NC(=O)[C@H](Cc4ccc(O)cc4)NC(=O)[C@H](CCSC)NC(=O)[C@H](Cc4ccc(-n5cc(CN)nn5)cc4)NC(=O)[C@H](CCCCN)NC(=O)[C@H](Cc4c[nH]c5ccccc45)NC(=O)CNC1=O)NC(=O)[C@H](CC(=O)O)NC(=O)[C@H](C)NC(=O)[C@H](CC(=O)O)NC(=O)[C@H](CO)NC(=O)[C@H](CC(N)=O)NC3=O)C(=O)N[C@@H](C)C(=O)N[C@@H](CC(N)=O)C(=O)N[C@@H](CCCCN)C(=O)N[C@@H](CCC(=O)O)C(=O)N[C@@H](CCCCN)C(=O)N2 | ZNRF3 | binding | – | pH 7.4 | Kd | 55 ± 6.5 nM
C/C=C(\N)C(=O)CCCCC | cqsS (Vibrio cholerae serotype O1, UniProt Q9KM66) | bioluminescence, agonist | Vibrio cholerae | – | EC50 | 590 nM

A few entries again:
SMILES | tested on | assay | test system | setting | endpoint | result
C#CCOc1ccccc1-c1nc2ccc(Cl)cc2c(=O)o1 | Serine protease Rv3671c (Mycobacterium tuberculosis, UniProt P9WHR9) | – | – | – | Ki | 262 nM
CCCCCn1cc(C(=O)c2ccc3ccccc3c2)c2ccccc21 | CNR1 (Homo sapiens, UniProt P21554, L193I) | G protein activation, agonist, BRET | – | – | EC50 | 112 nM
CC(=O)Oc1cccc2[nH]cc(CC[N+](C)(C)C)c12 | HTR3A (Homo sapiens, UniProt P46098) | ligand displacement, radioligand | – | cell membranes | Ki | > 10000 nM
